# Published values of several laboratories.
Structure (SMILES),test,test system,setting,how to read,quantity,result
Cc1cc(NC2CCN(C(=O)OC3CCN(C(=O)/C=C/CN(C)C)C3)CC2)n2ncc(C(C)C)c2n1 (stereo not shown),"Phase I dose escalation CTCAE v4.0, item: abdominal pain",patients with advanced solid tumours,"dose not given, TIW dosing grade 3 or higher",,patients with adverse event,9%
CCOc1c([C@H](C)n2nc(C)c3c(N)ncnc32)cc(Cl)c(F)c1[C@@H]1CNC(=O)C1,item: QTcF change above 60 ms,previously treated B-cell malignancy,"oral, 5 mg once daily, overall population",baseline: baseline,patients,0%
O=C(Nc1nc2cccc(-c3ccc(CN4CCS(=O)(=O)CC4)cc3)n2n1)C1CC1,,rheumatoid arthritis patients,"oral, 100 mg twice daily, 4 weeks, regardless of relatedness",,patients with infections,0%
COc1cc(Nc2ncc3c(n2)-c2ccc(Cl)cc2C(c2c(F)cccc2OC)=NC3)ccc1C(=O)O,"item: Hyperglycemia, grade 1","cancer patients, phase 1/2","oral, dose not given, added: pembrolizumab",,patients with adverse event,67%
CNC(=O)c1ccc(-c2cnc3ncc(Cc4ccc5ncccc5c4)n3n2)cc1F,item: Asthenia,gastric cancer patients,"oral, 600 mg twice daily, expansion cohort, grade 3-4",,patients with adverse event,0%
NC(=O)N1c2ccccc2C=Cc2ccccc21,,male patients,"oral, dose not given, on-treatment adverse events",,patients with Nasopharyngitis,0%
COc1ccc([C@@H](O)c2cc(-c3ncnc4cc(N5CCOCC5)ccc34)c(F)cc2Cl)nn1,,locally advanced rectal cancer patients,"100 mg, drug-related adverse events, added: capecitabine and radiotherapy",,patients with diarrhea,67%
C[C@@H](Nc1cc(F)cc(F)c1)c1cc(C(=O)N(C)C)cc2c(=O)cc(N3CCOCC3)oc12,"CTCAE v4, item: any AE",patients with advanced solid tumours,"oral, dose not given, phase I dose finding",,patients discontinuing for AE,17.5%
FC(F)(F)c1ccc(CNc2ccc(Cc3c[nH]c4ncc(Cl)cc34)cn2)cn1,item: hair colour changes,advanced solid tumour patients,"oral, 1000 mg/day, all grades, all cohorts",,patients with treatment-related adverse event,48%
Cc1cc(-c2nnc(N)nc2-c2ccc(F)cc2)cc(Cl)n1,item: Vomiting,"other solid tumours, IO-naive","oral, 100 mg once daily, all grades",,patients with treatment-related AE,21.1%

# Excerpt of the above:
Structure (SMILES),test,test system,setting,how to read,quantity,result
O=C(Nc1nc2cccc(-c3ccc(CN4CCS(=O)(=O)CC4)cc3)n2n1)C1CC1,,rheumatoid arthritis patients,"oral, 100 mg twice daily, 4 weeks, regardless of relatedness",,patients with infections,0%
